# Assay results pooled from the literature.
# Compare with care: the assays were run in different laboratories.
SMILES,organism,test,test system,conditions,MIC
CN[C@@H]1[C@H](O)[C@H](NC)[C@H]2O[C@]3(O)[C@H](O[C@@H]2[C@H]1O)O[C@H](C)C[C@@]3(O)CNCc1ccc(OC(F)(F)F)cc1,Listeria monocytogenes,,,,12.5 to 25 µg/mL
CCCCc1ccc(-c2nc(C)c(C(C)=NNC(=N)N)s2)cc1,Staphylococcus aureus,,USA400 MRSA,,1.3 µg/mL
C[N+]1=C2C(c3ccccc3)=[N+]([O-])c3ccccc3N2CCC1,Fusobacterium mortiferum,microbial growth,,,4 µg/mL
CC(C)C[C@@H]1NC(=O)[C@H](C)NC(=O)[C@H](NC(=O)[C@H](CO)NC(=O)[C@@H](CCCCN)NC(=O)[C@@H](CC(C)C)NC(=O)[C@@H](N)Cc2ccccc2)[C@H](C(N)=O)OC(=O)[C@H](C)NC1=O,Bacillus subtilis Bacillus subtilis,,ATCC 6051,tested as TFA salt,16 µg/mL
O=[N+]([O-])c1ccc(C2=[N+]([O-])c3ccccc3N3CCCN=C23)cc1,Fusobacterium nucleatum,microbial growth,ATCC25586,,≤ 0.06 µg/mL
CC[C@H](C)[C@@H]1NC(=O)CNC(=O)[C@H](CCCCN)NC(=O)[C@H](C)NC(=O)[C@H](CCC(=O)O)NC(=O)[C@H](Cc2ccccc2)NC(=O)[C@H](CO)NC(=O)[C@H](CC(C)C)NC(=O)[C@H](C(C)C)NC(=O)[C@H](CC(=O)O)NC(=O)[C@@H](NC(=O)[C@@H](NC(=O)[C@@H](N)C(C)C)[C@@H](C)O)CSSC[C@@H]2NC(=O)[C@H](CO)NC(=O)CNC(=O)CNC(=O)[C@H](CCCCN)NC(=O)[C@H](CCCCN)NC(=O)[C@H](CCCNC(=N)N)NC(=O)[C@H](CC(C)C)NC(=O)[C@H](C)NC(=O)[C@H]([C@@H](C)CC)NC(=O)[C@H](C)NC(=O)[C@H](Cc3c[nH]cn3)NC(=O)[C@H](CC(C)C)NC(=O)[C@H](C)NC(=O)[C@H](CSSC[C@@H](C(=O)N[C@H](C(=O)N[C@@H](C)C(=O)N[C@@H](CCCNC(=N)N)C(=O)N[C@@H](CC(N)=O)C(=O)O)C(C)C)NC(=O)[C@H](C(C)C)NC(=O)CNC(=O)[C@H](CC(N)=O)NC(=O)[C@H](CCC(N)=O)NC2=O)NC(=O)[C@H](C)NC(=O)[C@H](CO)NC(=O)[C@H](Cc2c[nH]cn2)NC(=O)[C@H](CC(N)=O)NC(=O)[C@H](C(C)C)NC(=O)[C@H](C)NC1=O,Malassezia furfur,broth microdilution,KCTC 7744,"32 °C, YM broth with 1% olive oil",25 µM
COc1ccc2ccc3c(c2c1)C=[N+]1C2CCCCC2[N+]2=Cc4cccc(OC)c4[O][Au-]21[O]3.F[P-](F)(F)(F)(F)F (stereo not shown),Klebsiella pneumoniae,"bacterial growth, broth microdilution",carbapenem-resistant,24 h,10 µM
C[N+]1=C2C(c3ccc(Cl)cc3)=[N+]([O-])c3ccccc3N2CCC1,Fusobacterium nucleatum,microbial growth,ATCC25586,,4 µg/mL
CC[C@H](C)[C@H](NC(=O)[C@H](CC(C)C)NC(=O)[C@H](CCC(=O)O)NC(=O)[C@H](CO)NC(=O)[C@H](CCCNC(=N)N)NC(=O)[C@@H](N)CO)C(=O)N[C@H](C(=O)N[C@@H](CCCNC(=N)N)C(=O)N[C@@H](CCC(N)=O)C(=O)N[C@@H](CCCNC(=N)N)C(=O)N[C@@H](CC(C)C)C(=O)N[C@@H](Cc1ccccc1)C(N)=O)C(C)C,Trichophyton rubrum,broth microdilution,ATCC 28189,,> 400 µg/mL
c1ccc(CCNC2CCCc3c2[nH]c2ccc(C4CCCCC4)cc32)cc1 (stereo not shown),Micrococcus luteus,"microbial growth, broth dilution",DSM1790,,1 µg/mL

# Repeated from above:
SMILES,organism,test,test system,conditions,MIC
CN[C@@H]1[C@H](O)[C@H](NC)[C@H]2O[C@]3(O)[C@H](O[C@@H]2[C@H]1O)O[C@H](C)C[C@@]3(O)CNCc1ccc(OC(F)(F)F)cc1,Listeria monocytogenes,,,,12.5 to 25 µg/mL
